{"data": "Measurements of several laboratories", "note": "Protocols differ between the studies behind these lines."}
{"Compound": "CNS(=O)(=O)Nc1nccc(Cc2c(C)c3ccc(Oc4ncccc4F)cc3oc2=O)c1F", "tested on": "A-427", "test": "cell viability", "conditions": "7 days", "quantity": "IC50", "value": "> 1000 nM"}
{"Compound": "COC1CN([C@H]2CC[C@H]([C@@]3(C)Oc4c(Cl)cc(C(=O)NCc5c(SC)cc(C)[nH]c5=O)c(C)c4O3)CC2)C1", "test": "RNA-seq, item: CLCN1 mouse homolog", "test system": "mouse, HT-1376 xenograft, whole blood", "conditions": "dose not given", "scale": "relative to: vehicle", "quantity": "log2 fold change", "value": 0.517}
{"Compound": "Cc1ncsc1-c1ccc(C(C)NC(=O)C2CC(O)CN2C(=O)C(NC(=O)CCCCCCCCCCN2CCCC(Nc3ncc(Cl)c(Nc4ccccc4S(=O)(=O)C(C)C)n3)C2)C(C)(C)C)cc1 (stereo not drawn)", "tested on": "22Rv1", "test": "RNA-seq, item: SEMA4B mRNA", "conditions": "concentration not given", "scale": "relative to: DMSO", "quantity": "log2 fold change", "value": -1}
{"Compound": "CN1CCCNC(=O)c2cccc(c2)C(=O)NCCCN(C)CCCNc2cccc3c2C(=O)c2cccc(c2C3=O)NCCC1", "tested on": "SAS", "test": "RNA-Seq, item: TADA2A mRNA", "conditions": "1 µM, 6 h", "scale": "relative to: untreated cells", "quantity": "log2 fold change", "value": -1.39}
{"Compound": "Nc1ncc(-c2cc(-c3cnn(CC(F)(F)F)c3)ncc2F)nc1C(=O)NC1CNCC(F)C1 (stereo not drawn)", "tested on": "CDKL5", "test": "KINOMEscan", "conditions": "1 µM", "scale": "relative to: DMSO control", "quantity": "remaining binding", "value": "100%"}
{"Compound": "c1ccc(-c2n[nH]cc2-c2ccnc3ccccc23)nc1", "tested on": "KIN2 (Candida albicans)", "test": "kinase binding, MIB/MS competition", "test system": "Candida albicans lysate", "conditions": "1 µM", "scale": "relative to: DMSO", "quantity": "log2 fold change", "value": -0.07}
{"Compound": "C=CC(=O)Nc1cccc(Cn2ncc3cnc(Nc4cnn(CCOC)c4)nc32)c1", "tested on": "TNK1 human", "test": "binding, KINOMEscan", "conditions": "100 nM", "scale": "lower = stronger binding", "quantity": "percent of control", "value": "5.5%"}
{"Compound": "COc1ccccc1-c1ccncc1C(=O)Nc1nnc(OCc2ccc(Cl)cc2)s1", "tested on": "PEO1 BRCA2-mutant ovarian cancer", "conditions": "1.00 µM, added: olaparib 2 µM", "quantity": "colony survival", "value": "0%"}
{"Compound": "C=C(NC(=O)c1csc(-c2nc3c(cc2O)-c2nc(cs2)C(=O)NC(C(C)O)C(=O)NC(=C(C)OC)c2nc(cs2)C(=O)NC2c4nc(cs4)C(=O)NC(COC(=O)c4c5c6c(cccc6n4O)COC(=O)C(OC4CC(C)(O)C(N(C)C)C(C)O4)C2OC5)c2nc-3cs2)n1)C(N)=O (stereo not drawn)", "tested on": "Streptococcus pyogenes", "test system": "40 clinical isolates", "quantity": "MIC50", "value": "7.8 ng/mL"}
{"note": "A few entries again:"}
{"Compound": "CNS(=O)(=O)Nc1nccc(Cc2c(C)c3ccc(Oc4ncccc4F)cc3oc2=O)c1F", "tested on": "A-427", "test": "cell viability", "conditions": "7 days", "quantity": "IC50", "value": "> 1000 nM"}
